Measurements gathered from unrelated publications.
Numbered parts are unrelated; each lists some results of a single study.
UniProt P48730, sequence (whole entry, looked up): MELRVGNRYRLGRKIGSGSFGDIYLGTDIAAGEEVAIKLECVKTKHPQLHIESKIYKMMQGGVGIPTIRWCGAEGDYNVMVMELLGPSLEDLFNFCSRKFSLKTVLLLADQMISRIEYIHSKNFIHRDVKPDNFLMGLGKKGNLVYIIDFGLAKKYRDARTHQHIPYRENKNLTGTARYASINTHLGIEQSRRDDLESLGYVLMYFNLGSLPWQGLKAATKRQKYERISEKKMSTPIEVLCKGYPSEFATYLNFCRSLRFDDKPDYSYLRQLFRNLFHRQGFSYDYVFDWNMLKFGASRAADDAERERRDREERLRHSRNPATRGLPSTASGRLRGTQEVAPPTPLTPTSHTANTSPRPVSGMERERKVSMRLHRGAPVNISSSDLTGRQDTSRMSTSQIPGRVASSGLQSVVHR
UniProt P29317, sequence (whole entry, looked up): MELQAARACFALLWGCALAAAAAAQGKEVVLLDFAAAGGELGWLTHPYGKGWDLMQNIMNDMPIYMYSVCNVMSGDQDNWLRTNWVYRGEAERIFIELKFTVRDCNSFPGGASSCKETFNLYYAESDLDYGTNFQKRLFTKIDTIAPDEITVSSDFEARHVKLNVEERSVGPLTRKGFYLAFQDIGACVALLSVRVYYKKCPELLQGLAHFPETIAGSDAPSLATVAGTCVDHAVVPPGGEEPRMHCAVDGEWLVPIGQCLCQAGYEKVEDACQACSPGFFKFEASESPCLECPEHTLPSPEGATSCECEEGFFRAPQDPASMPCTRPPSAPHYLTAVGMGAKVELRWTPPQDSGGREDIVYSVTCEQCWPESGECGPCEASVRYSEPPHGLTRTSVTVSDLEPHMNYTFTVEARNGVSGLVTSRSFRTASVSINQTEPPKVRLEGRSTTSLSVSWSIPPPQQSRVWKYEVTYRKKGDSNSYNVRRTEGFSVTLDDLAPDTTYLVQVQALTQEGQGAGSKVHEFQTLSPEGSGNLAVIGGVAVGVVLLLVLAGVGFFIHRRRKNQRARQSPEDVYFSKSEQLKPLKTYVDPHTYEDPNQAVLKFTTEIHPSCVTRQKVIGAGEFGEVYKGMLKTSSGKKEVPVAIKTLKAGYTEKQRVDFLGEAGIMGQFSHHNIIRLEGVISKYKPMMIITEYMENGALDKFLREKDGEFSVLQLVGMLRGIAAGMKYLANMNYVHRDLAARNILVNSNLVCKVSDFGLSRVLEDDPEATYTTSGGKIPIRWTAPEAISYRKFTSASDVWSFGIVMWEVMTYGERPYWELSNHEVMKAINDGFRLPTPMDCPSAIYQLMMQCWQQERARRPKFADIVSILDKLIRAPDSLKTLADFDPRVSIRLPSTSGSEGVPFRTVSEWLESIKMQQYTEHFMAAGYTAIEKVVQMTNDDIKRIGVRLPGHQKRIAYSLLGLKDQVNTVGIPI
UniProt P51812, sequence (whole entry, looked up): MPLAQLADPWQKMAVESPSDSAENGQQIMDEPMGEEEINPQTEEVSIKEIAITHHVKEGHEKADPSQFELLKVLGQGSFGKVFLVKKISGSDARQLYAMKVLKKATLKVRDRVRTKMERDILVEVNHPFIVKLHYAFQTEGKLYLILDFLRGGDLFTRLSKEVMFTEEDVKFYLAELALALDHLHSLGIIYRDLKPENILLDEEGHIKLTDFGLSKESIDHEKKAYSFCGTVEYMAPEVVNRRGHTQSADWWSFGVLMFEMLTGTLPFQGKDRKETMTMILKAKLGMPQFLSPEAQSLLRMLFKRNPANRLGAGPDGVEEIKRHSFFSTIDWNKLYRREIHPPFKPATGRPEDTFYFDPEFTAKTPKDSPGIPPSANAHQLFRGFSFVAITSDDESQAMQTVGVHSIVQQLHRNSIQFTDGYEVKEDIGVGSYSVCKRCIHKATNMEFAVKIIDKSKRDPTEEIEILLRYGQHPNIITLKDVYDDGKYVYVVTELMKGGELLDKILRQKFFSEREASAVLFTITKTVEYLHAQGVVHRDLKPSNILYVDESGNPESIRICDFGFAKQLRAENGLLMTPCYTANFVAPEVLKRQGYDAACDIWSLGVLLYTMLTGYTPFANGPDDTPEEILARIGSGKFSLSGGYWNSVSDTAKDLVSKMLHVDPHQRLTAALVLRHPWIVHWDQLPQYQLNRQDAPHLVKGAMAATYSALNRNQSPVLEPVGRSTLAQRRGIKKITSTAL
UniProt P27361, sequence (whole entry, looked up): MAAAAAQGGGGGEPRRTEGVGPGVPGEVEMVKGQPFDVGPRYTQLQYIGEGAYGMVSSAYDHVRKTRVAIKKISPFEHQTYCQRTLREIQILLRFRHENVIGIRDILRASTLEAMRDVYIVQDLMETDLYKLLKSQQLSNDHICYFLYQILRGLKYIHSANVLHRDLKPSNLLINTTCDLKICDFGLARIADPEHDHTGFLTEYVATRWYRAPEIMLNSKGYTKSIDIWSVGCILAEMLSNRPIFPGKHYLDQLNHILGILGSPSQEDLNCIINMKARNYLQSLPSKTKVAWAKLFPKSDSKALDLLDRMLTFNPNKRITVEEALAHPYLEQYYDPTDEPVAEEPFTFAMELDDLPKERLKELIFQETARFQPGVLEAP
UniProt O43353, sequence (whole entry, looked up): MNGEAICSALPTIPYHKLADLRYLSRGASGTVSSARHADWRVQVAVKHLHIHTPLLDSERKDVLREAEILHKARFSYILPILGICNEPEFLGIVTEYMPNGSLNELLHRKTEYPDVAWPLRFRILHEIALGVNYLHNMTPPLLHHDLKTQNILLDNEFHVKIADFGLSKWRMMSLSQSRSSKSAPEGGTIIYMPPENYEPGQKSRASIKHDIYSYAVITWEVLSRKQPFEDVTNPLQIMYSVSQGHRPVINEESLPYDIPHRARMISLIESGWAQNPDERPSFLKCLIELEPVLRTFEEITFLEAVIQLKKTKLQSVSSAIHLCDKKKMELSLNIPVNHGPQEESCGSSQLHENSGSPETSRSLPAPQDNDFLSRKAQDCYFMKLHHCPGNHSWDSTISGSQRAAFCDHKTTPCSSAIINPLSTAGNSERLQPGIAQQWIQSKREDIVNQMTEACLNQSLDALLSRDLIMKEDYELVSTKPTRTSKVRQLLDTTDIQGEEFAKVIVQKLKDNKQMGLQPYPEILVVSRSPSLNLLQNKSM
UniProt P42680, sequence (whole entry, looked up): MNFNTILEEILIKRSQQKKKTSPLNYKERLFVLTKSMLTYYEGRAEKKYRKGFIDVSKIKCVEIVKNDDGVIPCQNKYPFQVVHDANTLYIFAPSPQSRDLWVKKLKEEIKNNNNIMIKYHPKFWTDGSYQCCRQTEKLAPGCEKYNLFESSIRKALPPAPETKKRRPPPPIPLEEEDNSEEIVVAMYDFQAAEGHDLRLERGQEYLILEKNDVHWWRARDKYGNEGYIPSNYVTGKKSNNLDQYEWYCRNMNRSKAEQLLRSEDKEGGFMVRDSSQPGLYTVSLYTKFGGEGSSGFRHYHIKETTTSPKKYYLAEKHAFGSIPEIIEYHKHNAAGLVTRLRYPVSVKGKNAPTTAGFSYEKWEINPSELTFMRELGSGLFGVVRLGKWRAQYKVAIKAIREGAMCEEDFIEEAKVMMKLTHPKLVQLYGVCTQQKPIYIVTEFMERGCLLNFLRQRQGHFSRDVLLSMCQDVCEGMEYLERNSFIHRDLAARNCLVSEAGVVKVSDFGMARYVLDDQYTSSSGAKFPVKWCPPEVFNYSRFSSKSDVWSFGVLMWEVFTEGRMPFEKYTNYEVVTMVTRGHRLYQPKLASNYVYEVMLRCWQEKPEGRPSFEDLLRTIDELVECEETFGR
UniProt P29320, sequence (whole entry, looked up): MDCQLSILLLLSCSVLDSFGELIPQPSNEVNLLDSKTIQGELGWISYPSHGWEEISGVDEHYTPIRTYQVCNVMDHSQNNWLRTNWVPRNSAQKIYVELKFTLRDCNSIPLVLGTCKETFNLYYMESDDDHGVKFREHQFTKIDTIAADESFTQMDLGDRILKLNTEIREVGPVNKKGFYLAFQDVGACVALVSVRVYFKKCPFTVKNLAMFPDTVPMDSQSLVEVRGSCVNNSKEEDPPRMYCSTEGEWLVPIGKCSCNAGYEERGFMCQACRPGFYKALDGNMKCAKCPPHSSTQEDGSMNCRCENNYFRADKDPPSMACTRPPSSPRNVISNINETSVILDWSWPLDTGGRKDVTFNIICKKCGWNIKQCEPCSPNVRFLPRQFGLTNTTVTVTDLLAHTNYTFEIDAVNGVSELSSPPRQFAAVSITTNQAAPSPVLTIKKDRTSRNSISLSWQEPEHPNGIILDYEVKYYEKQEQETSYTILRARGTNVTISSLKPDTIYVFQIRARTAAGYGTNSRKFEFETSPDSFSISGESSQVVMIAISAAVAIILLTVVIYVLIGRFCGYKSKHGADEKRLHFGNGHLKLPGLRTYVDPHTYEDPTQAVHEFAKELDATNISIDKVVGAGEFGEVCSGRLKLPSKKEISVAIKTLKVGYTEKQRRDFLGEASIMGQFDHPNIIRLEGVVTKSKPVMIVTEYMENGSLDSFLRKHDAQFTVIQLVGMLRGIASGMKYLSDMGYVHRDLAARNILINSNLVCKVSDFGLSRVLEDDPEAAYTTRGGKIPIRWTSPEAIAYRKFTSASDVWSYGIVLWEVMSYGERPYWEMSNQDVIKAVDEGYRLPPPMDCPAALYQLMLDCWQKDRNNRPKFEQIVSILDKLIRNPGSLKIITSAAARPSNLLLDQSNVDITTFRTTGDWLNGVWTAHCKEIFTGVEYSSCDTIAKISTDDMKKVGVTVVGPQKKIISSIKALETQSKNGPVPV
UniProt Q9HBY8, sequence (whole entry, looked up): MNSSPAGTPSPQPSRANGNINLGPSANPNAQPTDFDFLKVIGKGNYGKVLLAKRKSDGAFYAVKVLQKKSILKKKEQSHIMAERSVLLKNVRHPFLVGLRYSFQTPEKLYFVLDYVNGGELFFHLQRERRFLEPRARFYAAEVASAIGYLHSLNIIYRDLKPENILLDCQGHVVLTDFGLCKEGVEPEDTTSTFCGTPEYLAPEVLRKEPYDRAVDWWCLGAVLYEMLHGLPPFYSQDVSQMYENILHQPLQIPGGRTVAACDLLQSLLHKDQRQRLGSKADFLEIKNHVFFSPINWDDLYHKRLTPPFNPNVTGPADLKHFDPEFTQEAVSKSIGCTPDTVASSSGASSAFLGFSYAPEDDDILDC

Study 1 — action: inhibitor; tested at: 10 µM
SMILES: Cc1nc(Nc2ncc(C(=O)Nc3c(C)cccc3Cl)s2)cc(N2CCN(CCO)CC2)n1
target	inhibition [%]
Misshapen-like kinase 1 (MINK1, Homo sapiens, UniProt Q8N4C8)	< 50
Casein kinase I isoform delta (CSNK1D, Homo sapiens, UniProt P48730)	< 50
Ephrin type-A receptor 3 (EPHA3, Homo sapiens, UniProt P29320)	94
Tyrosine-protein kinase ZAP-70 (ZAP70, Homo sapiens, UniProt P43403)	< 50
Ribosomal protein S6 kinase alpha-6, C-terminal kinase domain (RPS6KA6, Homo sapiens, UniProt Q9UK32)	< 50
Serine/threonine-protein kinase DCLK1 (DCLK1, Homo sapiens, UniProt O15075)	< 50
Fibroblast growth factor receptor 3 (FGFR3, Homo sapiens, UniProt P22607, G697C)	< 50

Study 2 — cell line: HaCaT; tested at: 100 µM; time: 60 h
SMILES	viability
COc1ccccc1OCC(O)CO (centres unmarked)	145%
CCCc1cc(=O)[nH]c(=S)[nH]1	144%
CC1(C)C(C=C(Cl)Cl)C1C(=O)OCc1cccc(Oc2ccccc2)c1 (centres unmarked)	66.5%
CCOC(=O)[C@H](CCc1ccccc1)N[C@@H](C)C(=O)N(CC(=O)O)C1Cc2ccccc2C1	59.5%
O=C(O)C1=CO[C@@H](O[C@@H]2O[C@H](CO)[C@@H](O)[C@H](O)[C@H]2O)[C@@H]2C(CO)=CC[C@H]12	136%
CC1=C(C(=O)O)N2C(=O)[C@@H](NC(=O)[C@H](N)C3=CCC=CC3)[C@H]2SC1	149%
COc1ccc2[nH]c([S+]([O-])Cc3ncc(C)c(OC)c3C)nc2c1 (centres unmarked)	122%

Study 3 — Structure (SMILES): Cc1ccc(NC2=CC(=O)c3sc(C)nc3C2=O)cc1; read-out: enzyme activity; action: inhibitor; tested at: 0.5 µM; reference: control
target	remaining activity [%]
Casein kinase I isoform delta (CSNK1D, Homo sapiens, UniProt P48730)	101
Calcium/calmodulin-dependent protein kinase kinase 1 (CAMKK1, Homo sapiens, UniProt Q8N5S9)	108
SRSF protein kinase 1 (SRPK1, Homo sapiens, UniProt Q96SB4)	92.6
Protein kinase C theta type (PRKCQ, Homo sapiens, UniProt Q04759)	93
Dual specificity protein kinase CLK2 (CLK2, Homo sapiens, UniProt P49760)	83.6
Serine/threonine-protein kinase PAK 1 (PAK1, Homo sapiens, UniProt Q13153)	87.5
Serine/threonine-protein kinase Sgk2 (SGK2, Homo sapiens, UniProt Q9HBY8)	94.6
Vascular endothelial growth factor receptor 1 (FLT1, Homo sapiens, UniProt P17948)	89.8
Casein kinase I isoform epsilon (CSNK1E, Homo sapiens, UniProt P49674)	93.4
Muscle, skeletal receptor tyrosine-protein kinase (MUSK, Homo sapiens, UniProt O15146)	89.1
Serine/threonine-protein kinase SIK2 (SIK2, Homo sapiens, UniProt Q9H0K1)	118
Ribosomal protein S6 kinase alpha-3 (RPS6KA3, Homo sapiens, UniProt P51812)	104
Ephrin type-A receptor 2 (EPHA2, Homo sapiens, UniProt P29317)	102
Tyrosine-protein kinase Tec (TEC, Homo sapiens, UniProt P42680)	117
Mitogen-activated protein kinase kinase kinase 20 (MAP3K20, Homo sapiens, UniProt Q9NYL2)	94
Serine/threonine-protein kinase PAK 6 (PAK6, Homo sapiens, UniProt Q9NQU5)	110
Tyrosine-protein kinase JAK1 (JAK1, Homo sapiens, UniProt P23458)	95.1
Calcium/calmodulin-dependent protein kinase type 1 (CAMK1, Homo sapiens, UniProt Q14012)	87.6
Insulin-like growth factor 1 receptor (IGF1R, Homo sapiens, UniProt P08069)	92.2
Tyrosine-protein kinase receptor TYRO3 (TYRO3, Homo sapiens, UniProt Q06418)	95.3
Protein kinase C zeta type (PRKCZ, Homo sapiens, UniProt Q05513)	98.2

Study 4 — read-out: cell-free assay; technique: competition with immobilised ligand; tested at: 1 µM
Structure (SMILES): O=C(O)c1cc(-c2ccc(C3CCNCC3)cc2)c2ccc(-c3ccc(C(F)(F)F)cc3)cc2c1
target	remaining binding
Serine/threonine-protein kinase Chk1 (CHEK1, Homo sapiens, UniProt O14757)	100%
Mitogen-activated protein kinase 6 (MAPK6, Homo sapiens, UniProt Q16659)	100%
Ephrin type-A receptor 2 (EPHA2, Homo sapiens, UniProt P29317)	100%
Phosphatidylinositol 4,5-bisphosphate 3-kinase catalytic subunit beta isoform (PIK3CB, Homo sapiens, UniProt P42338)	100%
Mitogen-activated protein kinase 4 (MAPK4, Homo sapiens, UniProt P31152)	100%
Serine/threonine-protein kinase B-raf (BRAF, Homo sapiens, UniProt P15056)	100%
Mitogen-activated protein kinase 3 (MAPK3, Homo sapiens, UniProt P27361)	100%
Protein-tyrosine kinase 2-beta (PTK2B, Homo sapiens, UniProt Q14289)	100%
Receptor-interacting serine/threonine-protein kinase 2 (RIPK2, Homo sapiens, UniProt O43353)	100%

Excerpt of the above (study 3):
target	remaining activity [%]
Serine/threonine-protein kinase PAK 1 (PAK1, Homo sapiens, UniProt Q13153)	87.5
Calcium/calmodulin-dependent protein kinase kinase 1 (CAMKK1, Homo sapiens, UniProt Q8N5S9)	108
Protein kinase C zeta type (PRKCZ, Homo sapiens, UniProt Q05513)	98.2
Tyrosine-protein kinase receptor TYRO3 (TYRO3, Homo sapiens, UniProt Q06418)	95.3
Muscle, skeletal receptor tyrosine-protein kinase (MUSK, Homo sapiens, UniProt O15146)	89.1
Vascular endothelial growth factor receptor 1 (FLT1, Homo sapiens, UniProt P17948)	89.8
